Results from different studies.
Parts stem from different laboratories: compare values within a part only. Substitutions count along the parent as printed.

Study 1
Target: Prothrombin, mature alpha-thrombin (F2, Homo sapiens, UniProt P00734)
Method: aptamer microarray, sandwich
Molecule type: DNA with 2'F-ANA
Matrix: in vitro
Concentration: 200 nM
Setting: whole 15-mer aptamer, many near background
With: Cy3 exosite-II aptamer, 400 nM
Reading: higher = stronger binding
Sequence: GGTTGGTGTGGTTGG
Modification	mean fluorescence intensity [a.u.]
2'F-ANA at 2 6 7 11 12 14	199
2'F-ANA at 2 3 4 5 6 9 10 12 13 14	53.7
2'F-ANA at 1 2 8 11	174
2'F-ANA at 1 4 10 11 14 15	56.4
2'F-ANA at 1 2 3 4 6 7 9 10 11 12	62.3
2'F-ANA at 1 4 5 6 11 12	81.1
2'F-ANA at 3 4 7 8 9	834
2'F-ANA at 1 4 11 12 15	260
2'F-ANA at 1 5 6 8 10 11 12 13 14	47.4
2'F-ANA at 4 6 7 10 11 12 14 15	78.5
2'F-ANA at 2 3 4 5 6 10 11 12 13 15	52.6
2'F-ANA at 1 3 6 10 11 12 13 15	102
2'F-ANA at 1 3 5 9 11 14 15	45.1
2'F-ANA at 2 5 6 7 9 14	46
2'F-ANA at 5 6 13 15	54.1
2'F-ANA at 1 3 6 10 11 14	58.4
2'F-ANA at 1 3 4 6 10 11	60.9
2'F-ANA at 4 5 6 8 10 11	48.6
2'F-ANA at 2 5 8 9 10 11 15	48.9
2'F-ANA at 2 4 5 6 8 9 11 12 15	117
2'F-ANA at 1 4 7 10 11 14	68.1
2'F-ANA at 1 2 3 4 6 8 9 11 13	117
2'F-ANA at 3 5 6 7 10 14 15	57.7

Study 2
Target: Ras GTPase-activating protein-binding protein 1, C-terminal RGG region (G3BP1, Homo sapiens, UniProt Q13283)
Sequence of UniProt Q13283 (whole entry, looked up): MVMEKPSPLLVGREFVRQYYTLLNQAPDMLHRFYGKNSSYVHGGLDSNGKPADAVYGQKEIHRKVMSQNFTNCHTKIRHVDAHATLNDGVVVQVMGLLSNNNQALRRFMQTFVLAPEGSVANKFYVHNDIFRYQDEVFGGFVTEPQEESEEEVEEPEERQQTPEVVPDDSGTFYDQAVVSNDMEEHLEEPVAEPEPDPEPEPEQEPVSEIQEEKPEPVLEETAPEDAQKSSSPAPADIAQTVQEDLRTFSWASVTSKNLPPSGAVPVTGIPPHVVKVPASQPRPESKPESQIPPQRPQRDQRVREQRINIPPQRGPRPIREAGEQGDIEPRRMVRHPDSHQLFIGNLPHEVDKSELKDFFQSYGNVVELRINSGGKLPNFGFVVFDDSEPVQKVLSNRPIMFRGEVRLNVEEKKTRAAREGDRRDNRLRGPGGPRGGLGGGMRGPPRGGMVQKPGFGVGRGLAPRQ
Method: RNA Bind-n-Seq
Molecule type: RNA
Matrix: in vitro
Concentration: 1 µM
Setting: whole 134-nt RNA, ends assumed
With: 150 mM KCl
Reference: input library
Reading: higher = stronger binding
Constant ends, left off below: GGGAGUUCUACAGUCCGACGAUC … UGGAAUUCUCGGGUGUCAAGG
Sequence	log2 enrichment
CUCAAGUCCUGUGCUACACAUCGUAUGUACCGAAUCGGAAGGGGAAGGGAAGGGAAAGUAUUAUGUUACGCCGUUCGGAUCUGCACUUCC	1.45
GCAGGAAGUAAAAACAAAUGGUAAUGCUUCGGAUAGUGGCAGGGGUGGGGGUUGCUAAGGAAAGGGUGGGAUGGGAGUGGGUAAAGAGUU	2.67
GUCCUGUGCUACACAUCGUAUGUACCGAAUCGGGGUUUUUGGGGUUUUUGGUUUUUGGAAAGUAUUAUGUUACGCCGUUCGGAUCUGCAC	-1.03
UCAAGUCCUGUGCUACACAUCGUAUGUACCGAAUCGGGGUGGGGUGGGGAGGGGAAAGUAUUAUGUUACGCCGUUCGGAUCUGCACUUCC	2.82
CUGUGCUACACAUCGUAUGUACCGAAUCGGGAAAAAAAGGGGAAAAAAAGGGAAAAAAAGGGAAAGUAUUAUGUUACGCCGUUCGGAUCU	-1.18
UGGCCCUGGUGGCAUGCGGGGAGGAAGAGGUGGCCCCAUGGAUCGUGGUGGUCCCGGUGGAAUGUUCAGAGGUGGCCGUGGUGGAGACAG	2.5
GCAGGAAGUAAAAACAAAUGGAAAUGCUUCGGAUAGUGGCAGGGGUGGGGGUUGCUAAGGAAAGGGAAAGAUGGGAGUGGGUAAAGAGUU	1.58
ACCAUGCAGGUGGGCAUCUUUGGGAAGUGGGGCAAGGGGGGGAUAGGGAGGGGGUUAACACUUUGGGAACAGGUGGUCCCAGGUCGUUUC	1.97
CAGUUUAAGAGGGGUUUCAUGCAAGGGCAUGUAAAUAGACAAGAAAAAGAAGAAAAAGAAGCAAUAUAUAAAGAACGUUGGCCAGAUUAU	-1.1

Study 3
Target: Histone acetyltransferase KAT6A, winged helix 1, GST fusion (KAT6A, Homo sapiens, UniProt Q92794, residues 1-85)
Method: protein binding microarray
Molecule type: double-stranded DNA, one strand shown
Matrix: in vitro
Concentration: not given
Setting: 8-mer, flanks averaged, mean of 2 arrays, mostly near background
Reference: not given
Reading: higher = stronger binding
Target sequence (chain): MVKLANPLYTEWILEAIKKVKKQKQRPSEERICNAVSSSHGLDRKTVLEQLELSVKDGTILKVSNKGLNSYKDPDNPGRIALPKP
Sequence	E-score
ATACGAAC	-0.135
CGTTTCAC	0.0281
CCTCTACC	-0.0801
GACCAAGA	-0.212
AAGGACCG	0.0828
GCGTTCGA	0.0799
GATCCGCC	0.212
AGCCTTGC	0.0179
GACGCGAA	-0.000155
CAATAATA	-0.245
CCGGATAA	0.069
ACTTCGTA	-0.166
TGTCTCAA	-0.155
ACAGGTTA	-0.129
GCCACGCA	0.246
CAACCTGA	-0.24
CTAACGAC	-0.105
ATCCTTAA	-0.247
GTGTTAGA	-0.105
CGTTTGAA	0.026

Study 4
Target: CCNF, cyclin fold, Cln2 fusion (human)
Method: yeast growth competition, sequencing
Matrix: yeast
Setting: strong parent motif
Reference: not given
Reading: higher = stronger binding
Starting sequence: RBL2 docking peptide (human); STTRRRLFVENDS
Substitution	normalised enrichment score
R6K	8.61
F8N	1.73
S13Y	7.9
R5D	0.294
L7R	1.17
R6Y	2
F8L	5.26
V9L	9.75
S1R	9.18
T2W	7.4
R5S	1.31
L7H	-0.00419
S1Y	8.52
T2R	8.01
S13K	7.96
S13G	8.22

Some of these lines once more (study 2):
Sequence	log2 enrichment
CUGUGCUACACAUCGUAUGUACCGAAUCGGGAAAAAAAGGGGAAAAAAAGGGAAAAAAAGGGAAAGUAUUAUGUUACGCCGUUCGGAUCU	-1.18
UGGCCCUGGUGGCAUGCGGGGAGGAAGAGGUGGCCCCAUGGAUCGUGGUGGUCCCGGUGGAAUGUUCAGAGGUGGCCGUGGUGGAGACAG	2.5
UCAAGUCCUGUGCUACACAUCGUAUGUACCGAAUCGGGGUGGGGUGGGGAGGGGAAAGUAUUAUGUUACGCCGUUCGGAUCUGCACUUCC	2.82
CUCAAGUCCUGUGCUACACAUCGUAUGUACCGAAUCGGAAGGGGAAGGGAAGGGAAAGUAUUAUGUUACGCCGUUCGGAUCUGCACUUCC	1.45
GUCCUGUGCUACACAUCGUAUGUACCGAAUCGGGGUUUUUGGGGUUUUUGGUUUUUGGAAAGUAUUAUGUUACGCCGUUCGGAUCUGCAC	-1.03
ACCAUGCAGGUGGGCAUCUUUGGGAAGUGGGGCAAGGGGGGGAUAGGGAGGGGGUUAACACUUUGGGAACAGGUGGUCCCAGGUCGUUUC	1.97
GCAGGAAGUAAAAACAAAUGGAAAUGCUUCGGAUAGUGGCAGGGGUGGGGGUUGCUAAGGAAAGGGAAAGAUGGGAGUGGGUAAAGAGUU	1.58
CAGUUUAAGAGGGGUUUCAUGCAAGGGCAUGUAAAUAGACAAGAAAAAGAAGAAAAAGAAGCAAUAUAUAAAGAACGUUGGCCAGAUUAU	-1.1
GCAGGAAGUAAAAACAAAUGGUAAUGCUUCGGAUAGUGGCAGGGGUGGGGGUUGCUAAGGAAAGGGUGGGAUGGGAGUGGGUAAAGAGUU	2.67
